Experimental data pooled from the literature.
Every numbered part comes from another study and shows a few of its results, in no order. Changes are numbered by the printed parent chain.

Block 1
Target: Histone acetyltransferase KAT6A, winged helix 1, GST fusion (KAT6A, Homo sapiens, UniProt Q92794, residues 1-85)
Technique: protein binding microarray
Molecule type: double-stranded DNA, one strand shown
Medium: in vitro
Tested at: not given
Setting: 8-mer, flanks averaged, mean of 2 arrays, mostly near background
Reference: not given
Direction: higher = stronger binding
Target sequence (chain): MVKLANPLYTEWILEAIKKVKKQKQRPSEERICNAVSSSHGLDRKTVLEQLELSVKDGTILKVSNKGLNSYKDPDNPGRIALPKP
Strand	E-score
TAGCTCGA	-0.0977
CCAGGCGC	0.18
CTTGTTAA	-0.155
AACACTCT	-0.127
AACACAGC	-0.106
ACCCCGCC	0.417
CACCGGAC	0.129
ATCGCTCC	0.124

Block 2
Target: CCND3, cyclin fold, Cln2 fusion (human)
Technique: yeast growth competition, sequencing
Medium: yeast
Setting: weak parent motif
Reference: not given
Direction: higher = stronger binding
Parent: PLK5 docking peptide (human); IFRKVGQRLLTQC; partner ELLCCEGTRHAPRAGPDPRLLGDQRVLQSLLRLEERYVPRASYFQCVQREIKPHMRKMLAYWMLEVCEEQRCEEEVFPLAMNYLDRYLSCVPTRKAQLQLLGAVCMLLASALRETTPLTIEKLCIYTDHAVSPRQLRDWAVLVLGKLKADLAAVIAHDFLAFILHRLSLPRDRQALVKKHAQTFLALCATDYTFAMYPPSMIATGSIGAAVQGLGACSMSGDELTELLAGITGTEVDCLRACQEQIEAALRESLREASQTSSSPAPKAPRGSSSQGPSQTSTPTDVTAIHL
Variant	normalised enrichment score
IFRKVGARLLTQC [Q7A]	0.201
IFRKAGQRLLTQC [V5A]	-0.177
IFRKVGQRLLTQA [C13A]	0.168
AFRKVGQRLLTQC [I1A]	0.694
IARKVGQRLLTQC [F2A]	0.781
IFRAVGQRLLTQC [K4A]	-0.34

Block 3
Target: Prothrombin, mature alpha-thrombin (F2, Homo sapiens, UniProt P00734)
Technique: aptamer microarray, sandwich
Molecule type: DNA with 2'F-ANA
Medium: in vitro
Tested at: 200 nM
Setting: whole 15-mer aptamer, many near background
Added: Cy3 exosite-II aptamer, 400 nM
Direction: higher = stronger binding
Strand: GGTTGGTGTGGTTGG
Modification	mean fluorescence intensity [a.u.]
2'F-ANA at 1 3 6 8 9 10 11 13	71.9
2'F-ANA at 4 6 8 10 12	106
2'F-ANA at 2 3 5 7 8 11 12 14	65.5
2'F-ANA at 3 4 5 6 7 9 12 13 14 15	51.5
2'F-ANA at 1 4 6 9 10 11 13	57.6
2'F-ANA at 1 5 7 8 12 15	129
2'F-ANA at 1 4 8 10 11 12	55

Other studies, line by line
Molecule	target	test	system	setting	how to read	quantity	value
PhoQ, residues 284 288 289 292 302 303 SMMNNA	PhoP, residues 12 14 15 18 19 NIMAP (Escherichia coli, UniProt P23836)	Sort-seq, refers to: YFP reporter	E. coli	PhoQ-PhoP variant library, added: 10 µM Mg2+	reference: high Mg2+ state, higher = stronger signaling	fold induction	1.13

Excerpt of the above (block 3):
Modification	mean fluorescence intensity [a.u.]
2'F-ANA at 2 3 5 7 8 11 12 14	65.5
2'F-ANA at 1 4 8 10 11 12	55
2'F-ANA at 1 5 7 8 12 15	129
